{"data": "Results of several laboratories", "Gnao1": "Gnao1, AlexaFluor 532 label (Rattus norvegicus, UniProt P59215)", "B1": "GRIK5 amino terminal domain 20-406 (Rattus norvegicus, UniProt Q63273); N-linked glycans; chain VLSSLRMAAILDDQTVCGRGERLALALAREQINGIIEVPAKARVEVDIFELQRDSQYETTDTMCQILPKGVVSVLGPSSSPASASTVSHICGEKEIPHIKVGPEETPRLQYLRFASVSLYPSNEDVSLAVSRILKSFNYPSASLICAKAECLLRLEELVRGFLISKETLSVRMLDDSRDPTPLLKEIRDDKVSTIIIDANASISHLVLRKASELGMTSAFYKYILTTMDFPILHLDGIVEDSSNILGFSMFNTSHPFYPEFVRSLNMSWRENCEASTYPGPALSAALMFDAVHVVVSAVRELNRSQEIGVKPLACTSANIWPHGTSLMNYLRMVEYDGLTGRVEFNSKGQRTNYTLRILEKSRQGHREIGVWYSNRTLAMNATTLDI", "B2": "RGS7 RH domain 333-448 (UniProt P49802); sequence looked up; chain GMDEALKDPVGREQFLKFLESEFSSENLRFWLAVEDLKKRPIKEVPSRVQEIWQEFLAPGAPSAINLDSKSYDKTTQNVKEPGRYTFEDAQEHIYKLMKSDSYPRFIRSSAYQELL", "B3": "RGS6 RGS homology domain 336-441 (Homo sapiens, UniProt P49758); sequence looked up; chain SFDEILKDQVGRDQFLRFLESEFSSENLRFWLAVQDLKKQPLQDVAKRVEEIWQEFLAPGAPSAINLDSHSYEITSQNVKDGGRYTFEDAQEHIYKLMKSDSYARF", "B4": "UGT1A9 (Homo sapiens, UniProt O60656); chain GKLLVVPMDGSHWFTMRSVVEKLILRGHEVVVVMPEVSWQLGRSLNCTVKTYSTSYTLEDLDREFKAFAHAQWKAQVRSIYSLLMGSYNDIFDLFFSNCRSLFKDKKLVEYLKESSFDAVFLDPFDNCGLIVAKYFSLPSVVFARGILCHYLEEGAQCPAPLSYVPRILLGFSDAMTFKERVRNHIMHLEEHLLCHRFFKNALEIASEILQTPVTEYDLYSHTSIWLLRTDFVLDYPKPVMPNMIFIGGINCHQGKPLPMEFEAYINASGEHGIVVFSLGSMVSEIPEKKAMAIADALGKIPQTVLWRYTGTRPSNLANNTILVKWLPQNDLLGHPMTRAFITHAGSHGVYESICNGVPMVMMPLFGDQMDNAKRMETKGAGVTLNVLEMTSEDLENALKAVINDKSYKENIMRLSSLHKDRPVEPLDLAVFWVEFVMRHKGAPHLRPAAHDLTWYQYHSLDVIGFLLAVVLTVAFITFKCCAYGYRKCLGKKGRVKKAHKSKTH", "B5": "HMGB1 A box; chain MGKGDPKKPRGKMSSYAFFVQTCREEHKKKHPDASVNFSEFSKKCSERWKTMSAKEKGKFEDMAKADKARYEREMKTYIPPKGET", "B6": "CIRBP (Homo sapiens, UniProt Q14011); PRMT1-methylated arginines in RGG region; sequence looked up; chain MASDEGKLFVGGLSFDTNEQSLEQVFSKYGQISEVVVVKDRETQRSRGFGFVTFENIDDAKDAMMAMNGKSVDGRQIRVDQAGKSSDNRSRGYRGGSAGGRGFFRGGRGRGRGFSRGGGDRGYGGNRFESRSGGYGGSRDYYSSRSQSGGYSDRSSGGSYRDSYDSYATHNE", "B7": "ftsZ (Bacillus subtilis, UniProt P17865); sequence looked up; chain MLEFETNIDGLASIKVIGVGGGGNNAVNRMIENEVQGVEYIAVNTDAQALNLSKAEVKMQIGAKLTRGLGAGANPEVGKKAAEESKEQIEEALKGADMVFVTAGMGGGTGTGAAPVIAQIAKDLGALTVGVVTRPFTFEGRKRQLQAAGGISAMKEAVDTLIVIPNDRILEIVDKNTPMLEAFREADNVLRQGVQGISDLIATPGLINLDFADVKTIMSNKGSALMGIGIATGENRAAEAAKKAISSPLLEAAIDGAQGVLMNITGGTNLSLYEVQEAADIVASASDQDVNMIFGSVINENLKDEIVVTVIATGFIEQEKDVTKPQRPSLNQSIKTHNQSVPKREPKREEPQQQNTVSRHTSQPADDTLDIPTFLRNRNKRG", "note": "Each line is one published result; not all experiments were run side by side. ± gives the spread as reported. No end group written: not given here."}
{"Substance": "ARTKQTARKSTG-fluorescein (histone H3 2-13 (UniProt P68431); C-terminal fluorescein; sequence looked up)", "target or system": "BIRC2 fragment (Homo sapiens)", "assay": "MST", "system": "peptide", "conditions": "pH 7.5, NaCl 150 mM", "endpoint": "Kd", "value": "1 µM"}
{"Substance": "SGVPDRF", "system": "peptide, human polyclonal IgM RF LOP", "conditions": "concentration not given, 5 µg/mL mAb II-481 coated, together with: RF at 50% max binding concentration", "endpoint": "inhibition", "value": "25%"}
{"Substance": "EDEPEIPLSPRPRP (CACNA1S 747-760 (Homo sapiens, UniProt Q13698); sequence looked up)", "target or system": "STAC 288-402 (Homo sapiens, UniProt Q99469)", "assay": "ITC", "system": "peptide", "conditions": "25 °C", "endpoint": "Kd", "value": "3.9 µM"}
{"Substance": "acpP, triclosan-pantetheine probe on Ser (Escherichia coli, UniProt P0A6A8)", "target or system": "fabI 1-262 (Escherichia coli, UniProt P0AEK4)", "assay": "ITC", "endpoint": "Kd", "value": "0.7119 ± 0.0013 µM"}
{"Substance": "F8 (Homo sapiens, UniProt P00451)", "target or system": "beta2-glycoprotein I/3B7 antibody (Homo sapiens/Mus musculus)", "assay": "ELISA", "endpoint": "Kd", "value": "0.0027 µM"}
{"Substance": "B1", "target or system": "Grik2 amino terminal domain 32-420 G215N/M217T, N-linked glycans (Rattus norvegicus, UniProt P42260)", "assay": "AUC", "conditions": "pH 7.5, 20 °C, NaCl 200 mM, sedimentation velocity, monomer-dimer model", "endpoint": "Kd", "value": "0.011 µM"}
{"Substance": "B2 (RGS7 RH domain 333-448)", "target or system": "Gnao1", "assay": "flow cytometry", "conditions": "pH 8.0, together with: GDP-AlF4-", "endpoint": "Kd", "value": "0.072 µM"}
{"Substance": "Bmper (Mus musculus, UniProt Q8CJ69)", "target or system": "Chrd (Mus musculus, UniProt Q9Z0E2)", "assay": "SPR", "conditions": "one-to-one fit", "endpoint": "Kd", "value": "0.0014 ± 0.0004 µM"}
{"Substance": "MIF4GD (Homo sapiens, UniProt A9UHW6)", "target or system": "SLBP, phosphorylated, multiple sites (Homo sapiens, UniProt Q14493)", "assay": "SPR", "conditions": "pH 7.4, 25 °C, NaCl 150 mM", "endpoint": "Kd", "value": "3.75 ± 1.8 µM"}
{"Substance": "B3", "target or system": "Gnao1", "assay": "flow cytometry", "conditions": "together with: GDP-AlF4-", "endpoint": "Kd", "value": "0.478 µM"}
{"Substance": "B4 (UGT1A9)", "target or system": "O=c1cc(-c2ccccc2O)oc2cc(O)ccc12", "assay": "steady-state kinetics", "conditions": "pH 7.4, 37 °C", "endpoint": "Vmax", "value": "0.000381 µmol/min/mg"}
{"Substance": "EDGGSFWYGAMKAAYG (designed peptide)", "target or system": "CIB1 (Homo sapiens, UniProt Q99828)", "assay": "ITC", "system": "peptide", "conditions": "25 °C, together with: CaCl2 0.1 mM", "endpoint": "Kd", "value": "2.81 µM"}
{"Substance": "HIWWNDN", "system": "peptide, human polyclonal IgM RF SOR", "conditions": "concentration not given, 5 µg/mL mAb II-481 coated, together with: RF at 50% max binding concentration", "endpoint": "inhibition", "value": "8%"}
{"Substance": "B5 (HMGB1 A box)", "target or system": "TP53 (Homo sapiens, UniProt P04637)", "assay": "BLI", "conditions": "30 °C", "endpoint": "Kd", "value": "0.00638 µM"}
{"Substance": "B6 (CIRBP)", "target or system": "TNPO3 (Homo sapiens, UniProt Q9Y5L0)", "assay": "ITC", "conditions": "pH 7.5, 25 °C, NaCl 150 mM", "endpoint": "Kd", "value": "1 µM"}
{"Substance": "B7 (ftsZ)", "target or system": "UgtP (Bacillus subtilis, UniProt P54166)", "assay": "BLI", "conditions": "pH 8.0, 30 °C, NaCl 100 mM, without UDP-glc", "endpoint": "Kd", "value": "0.038 µM"}
{"Substance": "SKTRGKAKVTGCWK (TNNT2 275-288 R286C (Homo sapiens, UniProt P45379-6); sequence looked up)", "target or system": "TPM1 (Oryctolagus cuniculus, UniProt P58772)", "assay": "SPR", "system": "peptide", "conditions": "pH 7.0, KCl 0.1 M", "endpoint": "Kd", "value": "6.26 µM"}
{"Substance": "Ac-ESIQGSLMDVGMRVRKSIST-NH2 (spd1 27-46 (Schizosaccharomyces pombe, UniProt Q10585); N-acetyl, C-amide)", "target or system": "pcn1 1-260 (Schizosaccharomyces pombe, UniProt Q03392)", "assay": "NMR titration", "system": "peptide", "conditions": "pH 7.4, NaCl 100 mM", "endpoint": "Kd", "value": "4000 ± 700 µM"}
{"note": "For quick reference, copied from above:"}
{"Substance": "acpP, triclosan-pantetheine probe on Ser (Escherichia coli, UniProt P0A6A8)", "target or system": "fabI 1-262 (Escherichia coli, UniProt P0AEK4)", "assay": "ITC", "endpoint": "Kd", "value": "0.7119 ± 0.0013 µM"}
{"Substance": "F8 (Homo sapiens, UniProt P00451)", "target or system": "beta2-glycoprotein I/3B7 antibody (Homo sapiens/Mus musculus)", "assay": "ELISA", "endpoint": "Kd", "value": "0.0027 µM"}
